Published values collected from several papers.
Each line is one published result; not all experiments were run side by side.
mcmA: mcmA (Methylobacterium extorquens, UniProt C5AV67)
B1: protein 1-329 G186S (Methylobacterium extorquens, UniProt C5AP93); chain MSATLPDMDTLRERLLAGDRAALARAITLAESRRADHRAAVRDLIDAVLPQTGRAIRVGITGVPGVGKSTTIDALGSLLTAAGHKVAVLAVDPSSTRTGGSILGDKTRMARLAIDRNAFIRPSPSSGTLGGVAAKTRETMLLCEAAGFDVILVETVGVGQSETAVADLTDFFLVLMLPGAGDELQSIKKGILELADMIAVNKADDGDGERRASAAASEYRAALHILTPPSATWTPPVVTISGLHGKGLDSLWSRIEDHRSKLTATGEIAGKRREQDVKWMWALVHERLHQRLVGSAEVRQATAEAERAVAGGEHSPAAGADAIATLIGL
B2: Ffh/4.5S RNA R194A (Escherichia coli); chain MFDNLTDRLSRTLRNISGRGRLTEDNVKDTLREVRMALLEADVALPVVREFINRVKEKAVGHEVNKSLTPGQEFVKIVRNELVAAMGEENQTLNLAAQPPAVVLMAGLQGAGKTTSVGKLGKFLREKHKKKVLVVSADVYRPAAIKQLETLAEQVGVDFFPSDVGQKPVDIVNAALKEAKLKFYDVLLVDTAGALHVDEAMMDEIKQVHASINPVETLFVVDAMTGQDAANTAKAFNEALPLTGVVLTKVDGDARGGAALSIRHITGKPIKFLGVGEKTEALEPFHPDRIASRILGMGDVLSLIEDIESKVDRAQAEKLASKLKKGDGFDLNDFLEQLRQMKNMGGMASLMGKLPGMGQIPDNVKSQMDDKVLVRMEAIINSMTMKERAKPEIIKGSRKRRIAAGCGMQVQDVNRLLKQFDDMQRMMKKMKKGGMAKMMRSMKGMMPPGFPGR
B3: bfd 1-73 L5A/C43S (Pseudomonas aeruginosa, UniProt Q9HY80); chain MYVCACQGVTDNQIRDAIYEGCCSYREVREATGVGTQCGKCASLAKQVVRETLNDLQSAQPVPAFGTTAFVAA
B4: fliQ (Salmonella enterica, UniProt P0A1L5); sequence looked up; chain MTPESVMMMGTEAMKVALALAAPLLLVALITGLIISILQAATQINEMTLSFIPKIVAVFIAIIVAGPWMLNLLLDYVRTLFSNLPYIIG
B5: ALDOA (Oryctolagus cuniculus, UniProt P00883); sequence looked up; chain MPHSHPALTPEQKKELSDIAHRIVAPGKGILAADESTGSIAKRLQSIGTENTEENRRFYRQLLLTADDRVNPCIGGVILFHETLYQKADDGRPFPQVIKSKGGVVGIKVDKGVVPLAGTNGETTTQGLDGLSERCAQYKKDGADFAKWRCVLKIGEHTPSALAIMENANVLARYASICQQNGIVPIVEPEILPDGDHDLKRCQYVTEKVLAAVYKALSDHHIYLEGTLLKPNMVTPGHACTQKYSHEEIAMATVTALRRTVPPAVTGVTFLSGGQSEEEASINLNAINKCPLLKPWALTFSYGRALQASALKAWGGKKENLKAAQEEYVKRALANSLACQGKYTPSGQAGAAASESLFISNHAY
B6: TERF2IP (Homo sapiens, UniProt Q9NYB0); sequence looked up; chain MAEAMDLGKDPNGPTHSSTLFVRDDGSSMSFYVRPSPAKRRLSTLILHGGGTVCRVQEPGAVLLAQPGEALAEASGDFISTQYILDCVERNERLELEAYRLGPASAADTGSEAKPGALAEGAAEPEPQRHAGRIAFTDADDVAILTYVKENARSPSSVTGNALWKAMEKSSLTQHSWQSLKDRYLKHLRGQEHKYLLGDAPVSPSSQKLKRKAEEDPEAADSGEPQNKRTPDLPEEEYVKEEIQENEEAVKKMLVEATREFEEVVVDESPPDFEIHITMCDDDPPTPEEDSETQPDEEEEEEEEKVSQPEVGAAIKIIRQLMEKFNLDLSTVTQAFLKNSGELEATSAFLASGQRADGYPIWSRQDDIDLQKDDEDTREALVKKFGAQNVARRIEFRKK
B7: protein 1-329 K188E (Methylobacterium extorquens, UniProt C5AP93); chain MSATLPDMDTLRERLLAGDRAALARAITLAESRRADHRAAVRDLIDAVLPQTGRAIRVGITGVPGVGKSTTIDALGSLLTAAGHKVAVLAVDPSSTRTGGSILGDKTRMARLAIDRNAFIRPSPSSGTLGGVAAKTRETMLLCEAAGFDVILVETVGVGQSETAVADLTDFFLVLMLPGAGDELQGIEKGILELADMIAVNKADDGDGERRASAAASEYRAALHILTPPSATWTPPVVTISGLHGKGLDSLWSRIEDHRSKLTATGEIAGKRREQDVKWMWALVHERLHQRLVGSAEVRQATAEAERAVAGGEHSPAAGADAIATLIGL
B8: DUSP23 (Homo sapiens, UniProt Q9BVJ7); chain MGVQPPNFSWVLPGRLAGLALPRLPAHYQFLLDLGVRHLVSLTERGPPHSDSCPGLTLHRLRIPDFCPPAPDQIDRFVQIVDEANARGEAVGVHCALGFGRTGTMLACYLVKERGLAAGDAIAEIRRLRPGSIETYEQEKAVFQFYQRTK
B9: CFH mature (Homo sapiens, UniProt P08603); chain EDCNELPPRRNTEILTGSWSDQTYPEGTQAIYKCRPGYRSLGNVIMVCRKGEWVALNPLRKCQKRPCGHPGDTPFGTFTLTGGNVFEYGVKAVYTCNEGYQLLGEINYRECDTDGWTNDIPICEVVKCLPVTAPENGKIVSSAMEPDREYHFGQAVRFVCNSGYKIEGDEEMHCSDDGFWSKEKPKCVEISCKSPDVINGSPISQKIIYKENERFQYKCNMGYEYSERGDAVCTESGWRPLPSCEEKSCDNPYIPNGDYSPLRIKHRTGDEITYQCRNGFYPATRGNTAKCTSTGWIPAPRCTLKPCDYPDIKHGGLYHENMRRPYFPVAVGKYYSYYCDEHFETPSGSYWDHIHCTQDGWSPAVPCLRKCYFPYLENGYNQNYGRKFVQGKSIDVACHPGYALPKAQTTVTCMENGWSPTPRCIRVKTCSKSSIDIENGFISESQYTYALKEKAKYQCKLGYVTADGETSGSITCGKDGWSAQPTCIKSCDIPVFMNARTKNDFTWFKLNDTLDYECHDGYESNTGSTTGSIVCGYNGWSDLPICYERECELPKIDVHLVPDRKKDQYKVGEVLKFSCKPGFTIVGPNSVQCYHFGLSPDLPICKEQVQSCGPPPELLNGNVKEKTKEEYGHSEVVEYYCNPRFLMKGPNKIQCVDGEWTTLPVCIVEESTCGDIPELEHGWAQLSSPPYYYGDSVEFNCSESFTMIGHRSITCIHGVWTQLPQCVAIDKLKKCKSSNLIILEEHLKNKKEFDHNSNIRYRCRGKEGWIHTVCINGRWDPEVNCSMAQIQLCPPPPQIPNSHNMTTTLNYRDGEKVSVLCQENYLIQEGEEITCKDGRWQSIPLCVEKIPCSQPPQIEHGTINSSRSSQESYAHGTKLSYTCEGGFRISEENETTCYMGKWSSPPQCEGLPCKSPPEISHGVVAHMSDSYQYGEEVTYKCFEGFGIDGPAIAKCLGEKWSHPPSCIKTDCLSLPSFENAIPMGEKKDVYKAGEQVTYTCATYYKMDGASNVTCINSRWTGRPTCRDTSCVNPPTVQNAYIVSRQMSKYPSGERVRYQCRSPYEMFGDEEVMCLNGNWTEPPQCKDSTGKCGPPPPIDNGDITSFPLSVYAPASSVEYQCQNLYQLEGNKRITCRNGQWSEPPKCLHPCVISREIMENYNIALRWTAKQKLYSRTGESVEFVCKRGYRLSSRSHTLRTTCWDGKLEYPTCAKR
B10: EVA4 24-127 (Rhipicephalus sanguineus, UniProt P0C8E9); N-glycosylated; chain EVPQMTSSSAPDLEEEDDYTAYAPLTCYFTNSTLGLLAPPNCSVLCNSTTTWFNETSPNNASCLLTVDFLTQDAILQENQPYNCSVGHCDNGTCAGPPRHAQCW
B11: bfd 1-73 C43S (Pseudomonas aeruginosa, UniProt Q9HY80); chain MYVCLCQGVTDNQIRDAIYEGCCSYREVREATGVGTQCGKCASLAKQVVRETLNDLQSAQPVPAFGTTAFVAA

Molecule | partner | assay | system | conditions | scale | quantity | value
N-formyl-Met-Leu-Phe, N-formyl | FPR2 (Homo sapiens, UniProt P25090) | aequorin luminescence, agonist | CHO-K1 |  |  | pEC50 | 5.94 pEC50
B1 (protein 1-329 G186S) | mcmA | GTP hydrolysis |  | GAP activity, with: MCM 2-fold |  | kcat | 0.0035 s⁻¹
B2 (Ffh/4.5S RNA R194A) | ftsY (Escherichia coli, UniProt P10121) | GTPase activity |  |  | baseline: wild type, higher = greater reduction | relative GTP hydrolysis rate | < 3 fold
olig1 (Danio rerio) | sox10 (Danio rerio, UniProt Q90XD1) | luciferase reporter | Cos-7 | with: Sox10 | baseline: reporter plus Sox10 alone, higher = more activation | mbp promoter activity | 2 fold
B3 (bfd 1-73 L5A/C43S) | bfrB 1-158 (Pseudomonas aeruginosa, UniProt Q9HY79) | Fe2+-bipyridine formation |  | with: NADPH 1 mM |  | iron release rate | 0.044 min⁻¹
B4 (fliQ) | fliR (Salmonella enterica, UniProt P54702) | cryo-EM |  |  |  | molecule per partner | 4
HIP-4.4 | HLA-DRA/HLA-DRB1*04:01 (Homo sapiens) | competition with biotinylated peptide, competitor, competition binding assay |  |  |  | IC50 | 10 µM
B5 (ALDOA) | TRAP C-terminal cytoplasmic tail (Plasmodium falciparum) | SPR |  | two-state model |  | ka2 | 0.007 s⁻¹
TBK1 fragment K584A (Homo sapiens) | STING1 (Homo sapiens, UniProt Q86WV6) | IFN-β luciferase reporter | TBK1 KO HEK293T | with: cGAMP | baseline: wild-type TBK1, higher = more reduction | reduction of IFN-β reporter | 40%
CAPZA fragment (Plasmodium berghei) | ACTB (Bos taurus, UniProt P60712) | phalloidin-stained actin filament length |  | 55 nM | baseline: actin alone, higher = longer filaments | median filament length | 4.1 µm
isdB fragment F164D/Y167D (Staphylococcus aureus) | HBA1/HBB methemoglobin (Homo sapiens) | heme transfer from methemoglobin |  |  |  | heme transfer rate constant | 0.004 s⁻¹
EDGGSWKYPDAFELSG (C3P-pd peptide) | MSN 1-345 (Homo sapiens, UniProt P26038) | ITC | peptide | pH 7.4, 25 °C, NaCl 200 mM |  | molecule per partner | 1
RC-LH1 core complex (Rhodopseudomonas palustris, UniProt O83005) | protein (Rhodopseudomonas palustris, UniProt Q6N1K3) | pull-down | solubilised membranes |  | baseline: total RC-LH1 complexes, higher = more pulled down | relative pull-down | 10%
Mos1 transposase T216A/D284A (Drosophila mauritiana) | MOS1 transposase T216A (Drosophila mauritiana) | NTS first strand cleavage |  | 30 nM total protein | baseline: T216A transposase at 30 nM, higher = more cleavage | relative cleavage activity | 46%
IWDYA (F5 residues 332-336 (Homo sapiens)) | F10/F5 factor Xa with factor Va 29-737 (Homo sapiens) | thrombin generation, inhibitor, prothrombinase inhibition assay | peptide | pH 7.4, apparent |  | Ki | 69 µM
B6 (TERF2IP) | LMNB1 (Homo sapiens, UniProt P20700) | proximity ligation |  | in cells | baseline: control cells, higher = more interaction | PLA dots increase | 5.1 fold
B7 (protein 1-329 K188E) | mcmA | GTP hydrolysis |  | GAP activity, with: MCM 2-fold |  | kcat | 0.00467 s⁻¹
FPELIQDTSTSFSTTR (ARAP3 1414-1429 (Homo sapiens)) | SHANK1 652-765 (Homo sapiens, UniProt Q9Y566) | crystal structure | peptide |  |  | binding | binds
B8 (DUSP23) | GCM1 167-349, pS269/pS275 (Homo sapiens, UniProt Q9NP62) | pull-down |  | 30 min, pH 7.5, 30 °C, with: PKA 0.5 U |  | binding | binds
B9 (CFH mature) | fhbp (Neisseria meningitidis, UniProt Q9JXV4) | flow cytometry | live bacteria | with: Fab | baseline: FH alone, higher = more FH bound | relative binding | 3.4 ratio
B10 (EVA4 24-127) | CCL14 (Homo sapiens, UniProt Q16627) | chemotaxis inhibition | CCR1 cells | with: CCL14 1010 nM |  | IC50 | 0.0024 µM
Epo-Fc Fc fusion, hinge-CH2-CH3, glycosylated (Mus musculus) | Fcgrt heavy chain (Mus musculus, UniProt Q61559) | ELISA |  | intranasal, adult mice | baseline: Epo-Fc/IHH, higher = more absorption | serum level | > 5 fold
ipaB (Shigella flexneri) | mxiH (Shigella flexneri, UniProt P0A223) | co-purification, Western blot |  | Class IIa ipaD mutants | baseline: complemented strain, higher = more IpaB in needles | relative binding | 150%
envC residues 20-end (Pseudomonas aeruginosa) | ftsE 1-223 (Pseudomonas aeruginosa, UniProt A0A069QBX1) | ATPase activity |  |  | baseline: without EnvC, higher = more ATPase activity | ATPase activity | 25 fold
B11 (bfd 1-73 C43S) | bfrB 1-158 E81A (Pseudomonas aeruginosa, UniProt Q9HY79) | Fe2+-bipyridine formation |  | with: NADPH 1 mM |  | iron release rate | 0.031 min⁻¹
RAN (UniProt P62826) | XPO1 (Homo sapiens, UniProt O14980) | RanGAP protection |  | 330 nM, with: NES peptide 200 nM | higher = more protection | Ran:GTP protected | 63%

Excerpt of the above:
Molecule | partner | assay | system | conditions | scale | quantity | value
EDGGSWKYPDAFELSG (C3P-pd peptide) | MSN 1-345 (Homo sapiens, UniProt P26038) | ITC | peptide | pH 7.4, 25 °C, NaCl 200 mM |  | molecule per partner | 1
RC-LH1 core complex (Rhodopseudomonas palustris, UniProt O83005) | protein (Rhodopseudomonas palustris, UniProt Q6N1K3) | pull-down | solubilised membranes |  | baseline: total RC-LH1 complexes, higher = more pulled down | relative pull-down | 10%
